Measured values from different studies.
Lines come from different studies, so protocols differ. ± marks the error that the study gave.
Gamma-aminobutyric acid receptor subunit alpha-4/beta3/delta: Gamma-aminobutyric acid receptor subunit alpha-4/beta3/delta (Homo sapiens, UniProt O14764+P28472+P48169)
UniProt O14764, sequence (whole entry, looked up): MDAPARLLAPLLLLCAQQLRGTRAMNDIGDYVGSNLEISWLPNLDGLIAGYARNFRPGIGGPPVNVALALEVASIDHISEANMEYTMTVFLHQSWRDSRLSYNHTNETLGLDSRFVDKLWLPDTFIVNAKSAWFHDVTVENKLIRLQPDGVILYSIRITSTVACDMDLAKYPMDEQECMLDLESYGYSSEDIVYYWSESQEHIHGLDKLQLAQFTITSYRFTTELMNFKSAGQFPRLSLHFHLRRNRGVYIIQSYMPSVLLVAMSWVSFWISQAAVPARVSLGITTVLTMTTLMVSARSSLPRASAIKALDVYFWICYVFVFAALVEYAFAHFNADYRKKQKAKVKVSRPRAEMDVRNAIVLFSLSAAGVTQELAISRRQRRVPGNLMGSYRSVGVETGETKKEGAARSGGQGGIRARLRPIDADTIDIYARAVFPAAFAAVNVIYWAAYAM
UniProt P28472, sequence (whole entry, looked up): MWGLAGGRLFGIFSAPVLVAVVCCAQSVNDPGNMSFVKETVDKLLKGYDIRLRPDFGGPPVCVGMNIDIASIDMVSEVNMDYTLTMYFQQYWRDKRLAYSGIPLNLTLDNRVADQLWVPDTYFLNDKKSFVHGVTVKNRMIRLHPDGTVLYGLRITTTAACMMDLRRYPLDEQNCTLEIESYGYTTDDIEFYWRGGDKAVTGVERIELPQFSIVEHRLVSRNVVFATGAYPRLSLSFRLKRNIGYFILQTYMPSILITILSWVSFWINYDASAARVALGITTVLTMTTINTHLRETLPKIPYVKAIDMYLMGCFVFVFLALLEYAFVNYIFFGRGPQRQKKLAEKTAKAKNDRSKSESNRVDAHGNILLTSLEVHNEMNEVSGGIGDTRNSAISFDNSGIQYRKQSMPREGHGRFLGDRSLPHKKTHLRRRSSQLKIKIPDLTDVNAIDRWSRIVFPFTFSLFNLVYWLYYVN
UniProt P48169, sequence (whole entry, looked up): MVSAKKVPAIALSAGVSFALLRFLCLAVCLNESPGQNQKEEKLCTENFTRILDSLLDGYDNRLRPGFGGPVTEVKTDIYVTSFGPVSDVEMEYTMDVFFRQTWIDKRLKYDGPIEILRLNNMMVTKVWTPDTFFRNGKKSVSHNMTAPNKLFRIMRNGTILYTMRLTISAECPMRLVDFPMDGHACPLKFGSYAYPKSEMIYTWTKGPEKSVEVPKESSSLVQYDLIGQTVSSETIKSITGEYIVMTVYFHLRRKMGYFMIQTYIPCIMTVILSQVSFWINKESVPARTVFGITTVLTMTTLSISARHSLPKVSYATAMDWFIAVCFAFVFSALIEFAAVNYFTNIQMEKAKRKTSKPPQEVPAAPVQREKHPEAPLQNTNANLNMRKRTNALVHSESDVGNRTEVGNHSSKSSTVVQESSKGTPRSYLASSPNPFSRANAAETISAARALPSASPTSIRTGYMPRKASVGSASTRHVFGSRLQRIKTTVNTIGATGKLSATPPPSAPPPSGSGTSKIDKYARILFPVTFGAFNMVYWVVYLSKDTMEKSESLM
UniProt P9WPA5, sequence (whole entry, looked up): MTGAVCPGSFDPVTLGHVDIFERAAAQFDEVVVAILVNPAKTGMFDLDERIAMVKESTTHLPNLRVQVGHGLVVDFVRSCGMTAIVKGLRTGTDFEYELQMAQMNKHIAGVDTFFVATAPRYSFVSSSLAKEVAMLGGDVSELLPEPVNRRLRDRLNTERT
UniProt P47746, sequence (whole entry, looked up): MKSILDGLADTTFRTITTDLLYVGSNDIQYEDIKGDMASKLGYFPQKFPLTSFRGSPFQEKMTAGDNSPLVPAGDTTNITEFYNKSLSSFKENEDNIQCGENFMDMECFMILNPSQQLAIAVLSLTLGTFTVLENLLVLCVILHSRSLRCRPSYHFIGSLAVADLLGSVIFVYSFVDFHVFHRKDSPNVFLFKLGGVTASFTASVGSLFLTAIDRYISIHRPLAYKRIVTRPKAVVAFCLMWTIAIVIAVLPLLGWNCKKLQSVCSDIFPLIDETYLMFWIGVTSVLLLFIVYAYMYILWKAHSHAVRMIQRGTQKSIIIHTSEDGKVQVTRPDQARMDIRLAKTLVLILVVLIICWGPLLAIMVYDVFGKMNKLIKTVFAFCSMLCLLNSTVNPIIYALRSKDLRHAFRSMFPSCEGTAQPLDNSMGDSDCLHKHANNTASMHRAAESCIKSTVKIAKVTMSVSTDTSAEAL
UniProt Q8VD00, sequence (whole entry, looked up): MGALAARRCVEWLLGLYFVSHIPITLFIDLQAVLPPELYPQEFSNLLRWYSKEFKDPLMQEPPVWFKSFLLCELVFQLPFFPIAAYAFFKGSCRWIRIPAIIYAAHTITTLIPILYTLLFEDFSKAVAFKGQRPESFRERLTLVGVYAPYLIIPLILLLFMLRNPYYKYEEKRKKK
UniProt P19484, sequence (whole entry, looked up): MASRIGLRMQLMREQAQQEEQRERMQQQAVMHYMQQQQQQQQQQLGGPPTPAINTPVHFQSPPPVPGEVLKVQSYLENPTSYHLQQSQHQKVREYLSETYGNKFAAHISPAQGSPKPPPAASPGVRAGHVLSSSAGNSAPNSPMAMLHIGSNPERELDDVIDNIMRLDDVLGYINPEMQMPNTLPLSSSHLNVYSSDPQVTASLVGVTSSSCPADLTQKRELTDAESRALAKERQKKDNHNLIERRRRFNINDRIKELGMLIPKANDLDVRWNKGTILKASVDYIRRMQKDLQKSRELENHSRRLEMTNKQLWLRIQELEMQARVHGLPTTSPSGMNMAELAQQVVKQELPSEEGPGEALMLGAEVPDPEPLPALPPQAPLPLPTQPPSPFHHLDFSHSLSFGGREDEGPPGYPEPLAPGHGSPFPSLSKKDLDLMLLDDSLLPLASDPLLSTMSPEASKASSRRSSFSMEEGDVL
UniProt A0QZ49, sequence (whole entry, looked up): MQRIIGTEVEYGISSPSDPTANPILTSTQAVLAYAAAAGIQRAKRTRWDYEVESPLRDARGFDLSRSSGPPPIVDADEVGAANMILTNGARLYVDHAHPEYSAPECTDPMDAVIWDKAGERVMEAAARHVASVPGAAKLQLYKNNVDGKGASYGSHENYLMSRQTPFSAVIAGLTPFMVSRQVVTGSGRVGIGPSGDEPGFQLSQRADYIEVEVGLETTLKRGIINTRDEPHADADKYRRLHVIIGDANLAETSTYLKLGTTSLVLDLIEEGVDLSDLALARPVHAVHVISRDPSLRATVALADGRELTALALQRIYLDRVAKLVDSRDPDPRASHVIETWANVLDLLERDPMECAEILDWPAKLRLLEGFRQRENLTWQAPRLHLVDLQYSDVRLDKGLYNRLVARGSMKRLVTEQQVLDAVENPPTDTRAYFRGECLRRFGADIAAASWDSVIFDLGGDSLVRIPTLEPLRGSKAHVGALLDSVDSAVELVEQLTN
UniProt Q06520, sequence (whole entry, looked up): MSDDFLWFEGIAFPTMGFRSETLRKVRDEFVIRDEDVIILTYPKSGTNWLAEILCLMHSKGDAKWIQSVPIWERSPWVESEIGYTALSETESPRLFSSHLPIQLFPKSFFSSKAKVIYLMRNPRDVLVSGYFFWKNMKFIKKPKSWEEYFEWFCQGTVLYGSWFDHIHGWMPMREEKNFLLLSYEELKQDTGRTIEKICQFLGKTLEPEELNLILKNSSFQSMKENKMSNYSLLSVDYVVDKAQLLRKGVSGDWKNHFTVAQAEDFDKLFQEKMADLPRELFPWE
UniProt P07148, sequence (whole entry, looked up): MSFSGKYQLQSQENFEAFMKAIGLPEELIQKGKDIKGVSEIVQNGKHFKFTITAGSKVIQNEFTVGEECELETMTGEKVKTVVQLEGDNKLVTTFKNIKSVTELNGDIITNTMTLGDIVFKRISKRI
UniProt P20272, sequence (whole entry, looked up): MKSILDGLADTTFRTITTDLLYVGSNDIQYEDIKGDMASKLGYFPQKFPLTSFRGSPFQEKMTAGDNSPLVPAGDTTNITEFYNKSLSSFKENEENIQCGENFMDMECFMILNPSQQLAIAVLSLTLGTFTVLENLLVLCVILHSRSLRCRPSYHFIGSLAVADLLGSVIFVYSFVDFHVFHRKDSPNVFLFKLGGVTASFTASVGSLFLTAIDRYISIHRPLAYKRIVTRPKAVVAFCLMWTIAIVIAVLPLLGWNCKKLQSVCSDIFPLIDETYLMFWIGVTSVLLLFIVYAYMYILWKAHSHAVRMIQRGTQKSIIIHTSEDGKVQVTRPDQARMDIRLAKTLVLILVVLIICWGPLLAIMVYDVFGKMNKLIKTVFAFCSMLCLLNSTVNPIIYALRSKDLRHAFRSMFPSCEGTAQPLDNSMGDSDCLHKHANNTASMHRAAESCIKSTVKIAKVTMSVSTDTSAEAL
UniProt P41146, sequence (whole entry, looked up): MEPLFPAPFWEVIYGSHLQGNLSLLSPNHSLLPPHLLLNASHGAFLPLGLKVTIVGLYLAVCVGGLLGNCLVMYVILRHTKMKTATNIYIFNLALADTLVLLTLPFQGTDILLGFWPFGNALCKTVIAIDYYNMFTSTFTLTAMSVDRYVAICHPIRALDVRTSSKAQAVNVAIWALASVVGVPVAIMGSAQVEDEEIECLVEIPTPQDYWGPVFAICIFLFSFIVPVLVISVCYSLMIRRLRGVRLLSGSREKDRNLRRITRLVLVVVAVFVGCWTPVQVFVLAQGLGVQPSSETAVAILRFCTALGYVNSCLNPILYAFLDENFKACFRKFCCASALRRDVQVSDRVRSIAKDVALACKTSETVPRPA

Compound = C=CCN1CCC2(C)c3cc(O)ccc3CC1C2C (single isomer, unassigned; (-)); target or system = Sigma intracellular receptor 2 (Tmem97, Mus musculus, UniProt Q8VD00); test = ligand displacement, radioligand; conditions = pH 8, cell membranes; quantity = IC50; value = 4.62 µM
Compound = CCC(=O)O[C@](Cc1ccccc1)(c1ccccc1)[C@H](C)CNC; target or system = Voltage-gated potassium channel (Doryteuthis opalescens, UniProt Q25376); test = potassium current block; test system = Loligo opalescens; conditions = 10 °C, +60 mV; quantity = Kd; value = ~40 µM
Compound = O=C(O)c1cnn(-c2ccccc2)c1OCCCc1c[nH]c2ccccc12; target or system = Phosphopantetheine adenylyltransferase (coaD, Mycobacterium tuberculosis, UniProt P9WPA5); test = ITC direct titration; test system = 5% DMSO; conditions = pH 8.0, 25 °C; quantity = Kd; value = 15 ± 4 µM
Compound = CC(C)c1ccc2c(c1)CC[C@H]1[C@](C)(CN)CCC[C@]21C; target or system = SBcl2; test = cell growth or viability, MTS; conditions = 72 h; quantity = IC50; value = 3.72 µM
Compound = C[C@H]1CNCCc2ccc(Cl)cc21; test system = Sprague-Dawley rat, male, plasma; conditions = subcutaneous, 3 mg/kg, 60 min; quantity = plasma concentration; value = 63.5 ± 4.38 ng/mL
Compound = C[C@]12CC[C@H](O)CC1=CC[C@@H]1[C@@H]2CC[C@]2(C)C(=O)CC[C@@H]12; target or system = Sulfotransferase 2A1 (SULT2A1, Homo sapiens, UniProt Q06520); quantity = Kd; value = 0.6 ± 0.1 µM
Compound = N=C(N)c1ccc(-c2ccc(-c3cccs3)o2)c(F)c1; target or system = Salmonella enterica; test system = TA1535; conditions = 20 µM, 48 h, together with: sodium azide after pre-exposure; how to read = baseline: sodium azide alone; quantity = mutant frequency; value = 24%
Compound = CN(C(=O)/C=C/c1ccoc1)[C@@H]1CC[C@@]2(O)[C@H]3Cc4cccc5c4[C@@]2(CCN3CC2CC2)[C@H]1O5; target or system = Nociceptin receptor (OPRL1, Homo sapiens, UniProt P41146); test = GTPγS binding, agonist; conditions = cell membranes; quantity = EC50; value = 1.76 µM
Compound = CN[C@@](C)(C[18F])C(=O)O; target or system = SK-OV-3 tumour model; test system = host not given, liver; conditions = 30 min, tumour-bearing; quantity = tracer uptake; value = 4 %ID/g
Compound = CC(=O)[C@H]1CC[C@H]2[C@@H]3CC[C@H]4C[C@H](O)CC[C@]4(C)[C@H]3CC[C@]12C; target or system = Gamma-aminobutyric acid receptor subunit alpha-4/beta3/delta; test = GABA current potentiation, positive modulator, two-electrode voltage clamp; test system = Xenopus laevis oocytes; conditions = 30 s preincubation, together with: GABA EC10; quantity = EC50; value = 0.54 ± 0.09 µM
Compound = CCCCCc1cc(O)c2c(c1)OC(C)(C)[C@@H]1CCC(C)=C[C@@H]21; test = drug discrimination; test system = C57BL/6J mice, female; conditions = intraperitoneal, first dose-effect curve; quantity = ED50; value = 1.76 mg/kg
Compound = COc1cc(/C=C(\C#N)C(=O)c2ccc(O)c(O)c2)cc(I)c1O; target or system = Pup deamidase/depupylase (dop, Mycolicibacterium smegmatis, UniProt A0QZ49); test = enzyme activity, inhibitor; conditions = 60 min preincubation; quantity = IC50; value = 0.71 ± 0.08 µM
Compound = CCCCn1cc(C(=O)c2cccc3ccccc23)c2cccc(O)c21; target or system = Cannabinoid receptor 1 (Cnr1, Mus musculus, UniProt P47746); test = GTPγS binding, antagonist; conditions = cell membranes; quantity = Kb; value = 0.0403 µM
Compound = C[C@@]1(O)CC[C@H]2[C@H](CC[C@@H]3[C@@H]2CC[C@]2(C)[C@@H](C(=O)Cn4cc(C#N)cn4)CC[C@@H]32)C1; target or system = Gamma-aminobutyric acid receptor subunit alpha-4/beta3/delta; test = GABA current potentiation, positive modulator, two-electrode voltage clamp; test system = Xenopus laevis oocytes; conditions = 30 s preincubation, together with: GABA EC10; quantity = EC50; value = 0.15 ± 0.03 µM
Compound = CC[C@H](C)[C@@H](CC(=O)N[C@@H](CCC(=O)O)CC(=O)O)NC(=O)C[C@@H](NC(=O)C[C@H](CCCN)NC(=O)C[C@H](Cc1cccc(C(F)(F)F)c1)NC(=O)C[C@@H](NC(=O)C[C@H](CCC(=O)O)NC(=O)C[C@H](Cc1c[nH]c2ccccc12)NC(=O)C[C@@H](NC(=O)C[C@@H](N)CCCN)C(C)C)C(C)C)C(C)C; target or system = HIV-1 gp41 IQN17; test = fluorescence polarization; conditions = fluorescein-labelled compound; quantity = Kd; value = 10.2 ± 0.3 µM
Compound = CCCCCc1cc(O)c2c(c1)OC(C)(C)[C@@H]1CCC(C)=C[C@@H]21; target or system = Fatty acid-binding protein, liver (FABP1, Homo sapiens, UniProt P07148); test = binding, DAUDA displacement; conditions = together with: DAUDA 0.5 µM; quantity = Kd; value = 0.3 ± 0.34 µM
Compound = N=C(N)c1ccc(-c2ccc(-c3cccs3)o2)cc1F; target or system = Salmonella enterica; test = sodium azide mutagenicity; test system = TA1535; conditions = 10 µM, 48 h, together with: sodium azide 2 µg/plate co-exposure; quantity = inhibition; value = 87%
Compound = CC1=CC[C@@H]2[C@@H](C1)c1c(O)cc(CC#CCCCNS(C)(=O)=O)cc1OC2(C)C; target or system = Cannabinoid receptor 1 (Cnr1, Rattus norvegicus, UniProt P20272); test = GTPγS binding, antagonist; conditions = cell membranes; quantity = Kb; value = 0.022 µM
Compound = CNC(C)Cc1ccc2c(c1)OCO2 (racemic); test = visual analog scale, item: Friendly; test system = human; conditions = oral, 1.5 mg/kg, mean over session, unit not given; how to read = baseline: pre-dose baseline; quantity = mood rating; value = 17.8
Compound = CC[C@H](C)[C@@H](CC(=O)N[C@@H](CCC(=O)O)CC(=O)O)NC(=O)C[C@@H](NC(=O)C[C@H](CCCN)NC(=O)C[C@H](Cc1cccnc1)NC(=O)C[C@@H](NC(=O)C[C@H](CCC(=O)O)NC(=O)C[C@H](Cc1c[nH]c2ccccc12)NC(=O)C[C@@H](NC(=O)C[C@@H](N)CCCN)C(C)C)C(C)C)C(C)C; target or system = HIV-1 gp41 IQN17; test = fluorescence polarization; conditions = fluorescein-labelled compound; quantity = Kd; value = 104 ± 8.2 µM
Compound = O=c1[nH]c2ccccc2n1C1CCN(CCCC(c2ccc(F)cc2)c2ccc(F)cc2)CC1; target or system = Transcription factor EB (TFEB, Homo sapiens, UniProt P19484); test = nuclear translocation, activator, GFP-TFEB imaging; test system = AML12; conditions = 2 h; how to read = baseline: Torin 1; quantity = AC50; value = 8.33 µM
Compound = CC[N+](C)(C)CCC(C(N)=O)(c1ccccc1)c1ccccc1; target or system = potassium channel; test = steady-state block; test system = Doryteuthis pealeii; conditions = internal application, together with: membrane potential +100 mV; quantity = Kd; value = 56.3 µM

For quick reference, copied from above:
Compound = N=C(N)c1ccc(-c2ccc(-c3cccs3)o2)c(F)c1; target or system = Salmonella enterica; test system = TA1535; conditions = 20 µM, 48 h, together with: sodium azide after pre-exposure; how to read = baseline: sodium azide alone; quantity = mutant frequency; value = 24%
Compound = CNC(C)Cc1ccc2c(c1)OCO2 (racemic); test = visual analog scale, item: Friendly; test system = human; conditions = oral, 1.5 mg/kg, mean over session, unit not given; how to read = baseline: pre-dose baseline; quantity = mood rating; value = 17.8
Compound = CC[N+](C)(C)CCC(C(N)=O)(c1ccccc1)c1ccccc1; target or system = potassium channel; test = steady-state block; test system = Doryteuthis pealeii; conditions = internal application, together with: membrane potential +100 mV; quantity = Kd; value = 56.3 µM
